Published values pooled from the literature.
Compare with care: the assays were run in different laboratories. ± gives the spread as reported.
UniProt P42685, sequence (whole entry, looked up): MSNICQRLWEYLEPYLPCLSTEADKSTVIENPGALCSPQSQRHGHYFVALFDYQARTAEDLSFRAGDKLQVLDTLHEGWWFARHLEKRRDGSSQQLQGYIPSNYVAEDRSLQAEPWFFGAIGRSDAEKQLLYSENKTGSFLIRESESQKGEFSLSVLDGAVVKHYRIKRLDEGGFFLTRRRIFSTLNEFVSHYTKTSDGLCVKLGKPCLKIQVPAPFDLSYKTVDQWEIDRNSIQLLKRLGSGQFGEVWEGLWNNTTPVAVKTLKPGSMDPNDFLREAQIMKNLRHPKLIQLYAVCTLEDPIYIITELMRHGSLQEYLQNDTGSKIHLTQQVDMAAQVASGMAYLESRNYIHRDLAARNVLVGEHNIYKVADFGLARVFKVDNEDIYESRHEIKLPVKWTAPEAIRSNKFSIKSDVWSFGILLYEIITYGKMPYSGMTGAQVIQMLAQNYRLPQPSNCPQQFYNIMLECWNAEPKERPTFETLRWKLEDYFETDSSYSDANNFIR

SMILES	tested on	assay	test system	setting	scale	quantity	value
CO[C@@H]1[C@@H](OC(N)=O)[C@@H](O)[C@H](Oc2ccc3c(O)c(NC(=O)c4ccc(O)c(CC=C(C)C)c4)c(=O)oc3c2C)OC1(C)C	HCT-116 BRCA2 wild-type			150 µM, replicate A	baseline: untreated	colony survival	94.2%
C=CC(=O)N1[C@@H](c2ccc3c(c2)OCO3)c2[nH]c3ccccc3c2C[C@H]1C(=O)N1CCN(C)CC1	human cyclin E1 N112C-3xFLAG:CDK2	co-IP with TMT proteomics, refers to: DNAJA1		concentration not given, P31689	baseline: wild type DMSO	relative co-enrichment	102%
CC(C)OCCOCc1ccc(OCC(O)CN(N=O)C(C)C)cc1 (stereo not shown)	Escherichia coli	Ames test	WP2 uvrA	500 µg/plate, 30 % rat S9	baseline: solvent control	revertant fold increase	0.8 fold
CC(C)=CCc1cc(C(=O)/C=C/c2ccc(O)cc2)c(O)cc1O		phase I metabolism, substrate	minipig liver microsomes			substrate inhibition constant	41.6 ± 10.1 µM
C=C(NC(=O)c1csc(-c2nc3c(cc2O)-c2nc(cs2)C(=O)NC(C(C)O)C(=O)NC(=C(C)OC)c2nc(cs2)C(=O)NC2c4nc(cs4)C(=O)NC(COC(=O)c4c5c6c(cccc6n4O)COC(=O)C(OC4CC(C)(O)C(N(C)C)C(C)O4)C2OC5)c2nc-3cs2)n1)C(N)=O (stereo not shown)	Streptococcus pneumoniae		-25, immunocompromised mice, lung	4 mg/kg/day thrice daily, 24 h post-dose		lung bacterial load	5.48 log10 CFU/lung
COC1CN([C@H]2CC[C@H]([C@@]3(C)Oc4c(Cl)cc(C(=O)NCc5c(SC)cc(C)[nH]c5=O)c(C)c4O3)CC2)C1		RNA-seq, refers to: SEMA7A mouse homolog	mouse, HT-1376 xenograft, whole blood	dose not given	baseline: vehicle	log2 fold change	1.49
N=C(N)NCCC[C@@H]1NC(=O)[C@H](CCCNC(=N)N)NC(=O)[C@@H](C(c2ccccc2)c2ccccc2)NC(=O)[C@H](Cc2c[nH]c3ccccc23)NC(=O)[C@@H](C(c2ccccc2)c2ccccc2)NC(=O)[C@@H](CCCNC(=N)N)NC(=O)[C@@H](CCCNC(=N)N)NC1=O	Candida albicans		ATCC 60193	2 x MIC, 24 h, preformed biofilm		biofilm mass reduction	59%
CC(C)c1ccc(N(C)c2ccc3c(c2)OCC[C@H]3CNc2cnccc2C(=O)O)cc1	LOUCY	cell viability, CellTiter-Glo		7 days		IC50	2.47 nM
Cc1nn(-c2cccc(N)c2)c(=O)c2cnc(Nc3ccc(N4CCNCC4)cc3)nc12	FRK (Homo sapiens, UniProt P42685)	enzyme activity, inhibitor				IC50	> 10000 nM
Cc1ncsc1-c1ccc(C(C)NC(=O)C2CC(O)CN2C(=O)C(NC(=O)CCCCCCCCCCN2CCCC(Nc3ncc(Cl)c(Nc4ccccc4S(=O)(=O)C(C)C)n3)C2)C(C)(C)C)cc1 (stereo not shown)	22Rv1	RNA-seq, refers to: SMARCAL1 mRNA		concentration not given	baseline: DMSO	log2 fold change	-1.5
COc1cc(-c2cn(C)c(=O)c3cnccc23)cc(OC)c1CN(C)C	Bromodomain testis-specific protein, BD1 (BRDT, Homo sapiens, UniProt Q58F21)					ΔTm	0 °C
Nc1ncc(-c2cc(-c3cnn(CC(F)(F)F)c3)ncc2F)nc1C(=O)NC1CNCC(F)C1 (stereo not shown)	YSK4	KINOMEscan		1 µM	baseline: DMSO control	remaining binding	98%
CNS(=O)(=O)Nc1nccc(Cc2c(C)c3ccc(Oc4ncccc4F)cc3oc2=O)c1F	NCI-H2196	cell viability		7 days		IC50	> 1000 nM
C=CC(=O)Nc1cccc(Cn2ncc3cnc(Nc4cnn(CCOC)c4)nc32)c1	LTK human	binding, KINOMEscan		100 nM	lower = stronger binding	percent of control	100%
CN(Cc1ccccc1)C(=O)CN1CCN(CC(=O)[O-])CCN(Cc2cccc(C(=O)[O-])n2)CC1.[18F-].[Sc+3]			mouse, spleen	intravenous, 1 h		tracer uptake	0.98 %ID/g
Cc1cccc2c1N(C(=O)n1ccnn1)CC2	Arabidopsis thaliana		wild type, seedlings	100 µM, continuous red light, with: 0.3 µM karrikin KAR2		hypocotyl length	4.89 mm
CN1CCCNC(=O)c2cccc(c2)C(=O)NCCCN(C)CCCNc2cccc3c2C(=O)c2cccc(c2C3=O)NCCC1	SAS	RNA-Seq, refers to: EXT1 mRNA		1 µM, 6 h	baseline: untreated cells	log2 fold change	-1.44
O=C([O-])CN1CCN(CC(=O)[O-])CCN(Cc2cccc(C(=O)[O-])n2)CC1.[177Lu+3]			mouse, heart	intravenous, 1 h		tracer uptake	0.22 %ID/g
CCCC[C@H](NC(=O)CCCCCCCNC(=O)CN1CCN(CC(=O)O)CCN(CC(=O)O)CC1)C(=O)N[C@H]1CC(=O)NCCCC[C@@H](C(N)=O)NC(=O)[C@H](Cc2c[nH]c3ccccc23)NC(=O)[C@H](CCCNC(=N)N)NC(=O)[C@@H](Cc2ccccc2)NC(=O)[C@H](Cc2c[nH]cn2)NC1=O [technetium-99m labelled]			C57 mouse, brain	intravenous, 0.037 MBq, 2 h		tissue uptake	0.02 ± 0.01 %ID/g
Cn1ncc2cc(-c3cncc(Cl)c3N3CCC4(CCNC4=O)CC3)ccc21	LS174T	gene expression, microarray, refers to: VASN mRNA		concentration not given, 24 h	baseline: untreated cells	log2 fold change	-2.43
CCN(CC)CC(=O)Nc1cccc(-n2cc(-c3ccc4ccc(-c5cn(-c6cccc(NC(=O)CN(CC)CC)c6)nn5)cc4c3)nn2)c1	RCC4	PCR angiogenesis array, refers to: TGFB2		5 x IC50, 6 h, normoxia	baseline: untreated	fold regulation	-1.27 fold
c1ccc(-c2n[nH]cc2-c2ccnc3ccccc23)nc1	CDC7 (Candida albicans)	kinase binding, MIB/MS competition	Candida albicans lysate	1 µM	baseline: DMSO	log2 fold change	-0.02
